Measured values from different studies.
Every numbered part comes from another study and shows a few of its results, in no order. Substitutions count along the parent as printed.

Sample 1
Target: Histone acetyltransferase KAT6A, winged helix 2, GST fusion (KAT6A, Homo sapiens, UniProt Q92794, residues 85-181)
Method: protein binding microarray
Form: double-stranded DNA, one strand shown
Medium: in vitro
Concentration: not given
Notes: 8-mer, flanks averaged, mean of 2 arrays, mostly near background
Baseline: not given
Direction: higher = stronger binding
Quantity: E-score
Construct (chain): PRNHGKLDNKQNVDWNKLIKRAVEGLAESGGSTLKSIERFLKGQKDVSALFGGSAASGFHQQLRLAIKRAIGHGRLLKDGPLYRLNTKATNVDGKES
Oligonucleotide = TCGGATAA; result = 0.00832
Oligonucleotide = GTAAAACA; result = -0.126
Oligonucleotide = CGAACCTC; result = 0.00373
Oligonucleotide = AGATGAGA; result = -0.108
Oligonucleotide = AGGAGCGC; result = 0.0733
Oligonucleotide = GAAAAGCC; result = 0.0502
Oligonucleotide = CGCGTAGA; result = 0.135

Sample 2
Target: TAR DNA-binding protein 43, full length, His tag (TARDBP, Homo sapiens, UniProt Q13148, residues 1-414)
Method: RNA Bind-n-Seq
Form: RNA
Medium: in vitro
Concentration: 20 nM
Notes: 6-mer, flanks averaged, single round
Added: 150 mM KCl
Baseline: input library
Direction: higher = stronger binding
Quantity: 6-mer enrichment (R)
Oligonucleotide = GUCAGC; result = 0.874
Oligonucleotide = UACUCU; result = 0.549
Oligonucleotide = UAGGAG; result = 1.52
Oligonucleotide = UCGGAG; result = 1.34
Oligonucleotide = UCCCCC; result = 0.655
Oligonucleotide = CUGCUA; result = 0.617
Oligonucleotide = GCAUAC; result = 0.679
Oligonucleotide = AUCACG; result = 0.666

Further values, each from its own experiment
CCNA1: CCNA1, cyclin fold, Cln2 fusion (human)
P1: SCAPER docking peptide (human); SNARRSLNFGGST; partner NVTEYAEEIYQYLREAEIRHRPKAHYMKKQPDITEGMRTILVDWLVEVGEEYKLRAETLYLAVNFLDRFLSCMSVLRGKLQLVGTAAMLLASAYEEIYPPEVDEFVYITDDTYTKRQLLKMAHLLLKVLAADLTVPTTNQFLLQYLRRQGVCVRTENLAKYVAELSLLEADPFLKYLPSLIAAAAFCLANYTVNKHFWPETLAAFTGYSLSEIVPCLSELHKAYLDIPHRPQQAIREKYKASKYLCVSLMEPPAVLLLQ
Substance = PSSMRKICTYFHR; target or system = Saccharomyces cerevisiae; assay = peptide binding, yeast competitive growth sequencing; test system = peptide, cyclin F-Cln2 fusion; conditions = library 2; how to read = direction not given; quantity = enrichment score; result = -0.612
Substance = PhoQ, residues 284 288 289 292 302 303 ASSHFY; target or system = PhoP, residues 12 14 15 18 19 LHHSG (Escherichia coli, UniProt P23836); assay = Sort-seq, measured: YFP reporter; test system = E. coli; conditions = PhoQ-PhoP variant library, added: 10 µM Mg2+; how to read = baseline: high Mg2+ state, higher = stronger signaling; quantity = fold induction; result = 13.2
Substance = GSPLAKAFTSTGL; target or system = Saccharomyces cerevisiae; assay = peptide binding, yeast competitive growth sequencing; test system = peptide, cyclin E2-Cln2 fusion; conditions = library 1; how to read = direction not given; quantity = enrichment score; result = 0.257
Substance = P1 R4T; target or system = CCNA1; assay = yeast growth competition, sequencing; test system = yeast; conditions = weak parent motif; how to read = baseline: not given, higher = stronger binding; quantity = normalised enrichment score; result = 0.403
Substance = P1 S1C; target or system = CCNA1; assay = yeast growth competition, sequencing; test system = yeast; conditions = weak parent motif; how to read = baseline: not given, higher = stronger binding; quantity = normalised enrichment score; result = 0.816

Repeated from above (sample 2):
Oligonucleotide = AUCACG; result = 0.666
